Experimental data pooled from the literature.
Each numbered part is a random draw from the data of one study; scales do not carry over between parts. Positions count from the first letter of the parent shown.

Set 1 — technique: protein binding microarray; molecule type: double-stranded DNA, one strand shown; matrix: in vitro; concentration: not given; reference: not given; direction: higher = stronger binding; endpoint: E-score
Target: Histone acetyltransferase KAT6A, winged helix 2, GST fusion (KAT6A, Homo sapiens, UniProt Q92794, residues 85-181)
Notes: 8-mer, flanks averaged, mean of 2 arrays, mostly near background
Residues (chain): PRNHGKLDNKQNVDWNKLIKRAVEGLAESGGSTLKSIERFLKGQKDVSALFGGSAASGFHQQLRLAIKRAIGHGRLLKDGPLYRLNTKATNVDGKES
GCGAACTA: 0.0104
GGGCAAGA: 0.148
AACGTCGA: 0.0116
GAAAGGAC: -0.00128
AATAGGTA: -0.171
CCCCCCCA: 0.0264
AAGAGCTG: -0.0807
ACCAACGA: -0.0633
CTCGTTCA: 0.0253
CCTTCACA: 0.00877
AGCTGTAT: -0.206
GAGAACAA: 0.162
CAGTCAGG: -0.196
ACGCATGA: 0.0113
AGATATAC: -0.102
CGCTACAG: -0.102
AAGCGGAA: 0.08
AATAAACC: -0.0322
CCGCATCC: 0.0821

Set 2 — technique: RNA Bind-n-Seq; molecule type: RNA; matrix: in vitro; concentration: 365 nM; reference: no-protein control; direction: higher = stronger binding; endpoint: RBNS enrichment (R)
Target: RNA binding protein fox-1 homolog 2, RRM domain, GST-SBP tag (RBFOX2, Homo sapiens, UniProt O43251-10, residues 100-194)
Notes: natural RNA segment, single round, ends assumed
Target sequence (chain): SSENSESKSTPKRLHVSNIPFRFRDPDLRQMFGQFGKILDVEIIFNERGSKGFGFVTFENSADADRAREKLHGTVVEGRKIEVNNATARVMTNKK
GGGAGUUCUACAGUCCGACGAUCUUUCUGUCUCAGUGUGAUCCACUAACCCACAGGAUCAUUUGGAACCUUGAAUAGCUCUGCUUGGACAAUGGGGUUGGGGAAUAGGGUUGUCUUUCCUAUGAAAAUGCCAUUGGAAUUCUCGGGUGCCAA: 0.482
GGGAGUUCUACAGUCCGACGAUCCUCCCCCCGCACUGCAGCCGCGGGGAGCGCCGCGCCAUCGAGAAGCUCGCGGUGGAAGCCCUGUCCAGCCUGGACGGCGACCUGGCGGGCCGAUACUACGCGCUCAAGAGUGGAAUUCUCGGGUGCCAA: 0.245
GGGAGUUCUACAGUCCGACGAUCAAGCAUUAGUUGGAAGAUGCAAAGUUUAUACCUGAUGAUCAGGGCAGUAGGCAUAAUUCAGCAACAAACAAUCUUCCUUUGGGAGAAACCUGUUCAUUCCAAUCUUCUAAUGGAAUUCUCGGGUGCCAA: 0.549
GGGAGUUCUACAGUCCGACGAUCCCCUUUACCUCACAGUCUCCAUUGGACCUCAGCCAGGACCAGCCUCUGUCUGGUCCGAGAUGACCCUCUGGUCCAGGCCUCGCUGACACUUUUGUUCUCAGCUUCUGCCAUGGAAUUCUCGGGUGCCAA: 0.289
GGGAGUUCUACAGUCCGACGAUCGAAGUGACAGUCAUGUUCAAAGGAAGCAUUUCUAGAAAAAAGGAGAUAAUGUUUUUAAAUUUCAUUAUCAAACUUGGGCAAUUCUGUUUGUGUAACUCCCCGACUAGUGGUGGAAUUCUCGGGUGCCAA: 0.531
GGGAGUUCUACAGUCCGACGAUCCCCACUCCAAAAGGUAGUACCUCAAGGCUUCUCGCACUCCCCUAUUUCCUCGGGAUAUGAGAAGCCUCGAUAAACAUCUCUGCCGUUCCCCAUCCCUAUAUCAACACUCUUGGAAUUCUCGGGUGCCAA: 0.51
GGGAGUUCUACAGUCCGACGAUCUGUUGGUAGCCCCCAAGUGGCGUGCAGUGACACCAGUAUCUUCUCUGUUGCAUUUUUGCAAUCUUGUGUCCCGCUCGGUGAUGUUCUACAAACUCUGUUUUAAGGUUGAGUGGAAUUCUCGGGUGCCAA: 0.227
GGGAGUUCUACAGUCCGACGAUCAAACUUGCCCUUUCUGAAGGCAAGCCUAGAAUUGGGUCUUUUGUUGUCAUUGUUCCAAAUUUCCAGAAUAGAAUAUAGGACCAGUUUAGAUCCUGUAGUAAACAUGUCCCUGGAAUUCUCGGGUGCCAA: 0.3
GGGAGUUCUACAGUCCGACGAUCGAAAAUCUUAGUGUCUCCUGGUGGAGGGGAAGGACCGGCUGCCUCACCCCACUCCCUGAUCUCACAAAAGUGCGAGUUUCCAGUCCUGACUAACUAGGGCUCCAGUCAGUUGGAAUUCUCGGGUGCCAA: 0.389
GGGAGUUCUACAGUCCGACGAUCAUGGUGAGGGGUUUACAGGGUAAGGGGACAAGACUACACACACUAGCGUGGUAGGACUAGAUUUUUGUUUUCCCCACCAAGUAAAUGUUCACCUGUGACCUUGGGCUGGGUGGAAUUCUCGGGUGCCAA: 0.809
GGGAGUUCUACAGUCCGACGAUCUGAGGCAAGGCCUGGCCGACAACACCGUUAUUGCUAAGUAAAUAAUGUUGUGUGGGACCUGGACCGCCCUCUGGAAGAAGAUUGUACCUUGGAGCUUCUCAAGUUUGAGGUGGAAUUCUCGGGUGCCAA: 0.338
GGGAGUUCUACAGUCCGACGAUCACCCAAGGGGCCUCUCCAUGCCUUCUUAGGAAGCAGCUAUGAAUCCAUUGUCCUUGUAGUUUCUUCCCUCCUGUUCUCUGGUUAUAGCUGGUCCCAGGUCAGCGUGGGAGUGGAAUUCUCGGGUGCCAA: 0.371

Set 3 — target: CCNB2, cyclin fold, Cln2 fusion (human); technique: yeast growth competition, sequencing; matrix: yeast; notes: weak parent motif; reference: not given; direction: higher = stronger binding; endpoint: normalised enrichment score
Parent: CDC6 docking peptide (human); TLKGRRLVFDNQL; partner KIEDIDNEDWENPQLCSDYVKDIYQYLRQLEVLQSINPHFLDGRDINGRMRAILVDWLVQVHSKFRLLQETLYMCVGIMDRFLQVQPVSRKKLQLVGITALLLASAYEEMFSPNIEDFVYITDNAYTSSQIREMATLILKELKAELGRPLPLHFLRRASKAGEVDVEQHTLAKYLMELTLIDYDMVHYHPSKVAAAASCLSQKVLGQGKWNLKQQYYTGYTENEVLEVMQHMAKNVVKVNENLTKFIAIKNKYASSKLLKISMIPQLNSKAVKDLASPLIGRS
N11W: 0.424
V8P: 0.281
D10C: 0.861
N11S: -0.229
V8E: 0.631
F9N: 0.39
V8D: 0.0569
D10A: 0.104
T1K: 0.577
L13D: 0.0664
N11G: 0.195
V8I: 0.0176
Q12W: 0.719
L2E: -0.175
R5W: 0.325
Q12C: -0.146
R6G: -0.245
R6Q: -0.334
L7K: 0.512
T1W: 0.552
D10Y: 0.757
T1A: 0.613
F9K: 0.633
N11Q: 0.0534
F9M: 0.508

Set 4 — technique: RNA Bind-n-Seq; molecule type: RNA; matrix: in vitro; concentration: 1 µM; notes: whole 134-nt RNA, ends assumed; added: 150 mM KCl; reference: input library; direction: higher = stronger binding; endpoint: log2 enrichment
Target: Ras GTPase-activating protein-binding protein 1, C-terminal RGG region (G3BP1, Homo sapiens, UniProt Q13283)
Chain of UniProt Q13283 (whole entry, looked up): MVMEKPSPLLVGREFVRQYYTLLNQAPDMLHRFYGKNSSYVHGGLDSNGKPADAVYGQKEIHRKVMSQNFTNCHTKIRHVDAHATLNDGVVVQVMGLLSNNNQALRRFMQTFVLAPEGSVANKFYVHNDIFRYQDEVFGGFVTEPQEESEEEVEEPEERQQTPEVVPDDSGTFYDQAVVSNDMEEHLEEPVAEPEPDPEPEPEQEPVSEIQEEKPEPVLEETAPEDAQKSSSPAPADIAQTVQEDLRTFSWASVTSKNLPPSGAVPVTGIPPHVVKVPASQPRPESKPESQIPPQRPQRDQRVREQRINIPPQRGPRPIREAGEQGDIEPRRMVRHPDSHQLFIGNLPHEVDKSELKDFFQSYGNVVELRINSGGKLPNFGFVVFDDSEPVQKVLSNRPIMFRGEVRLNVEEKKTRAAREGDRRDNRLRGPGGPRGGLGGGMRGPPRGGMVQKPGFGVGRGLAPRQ
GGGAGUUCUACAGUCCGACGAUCUAACUUUAGAGGAGGAUCUGAUGGAUAUGGCAGUGGACGUGGAUUUGGGAAUGGCUAUAAUGGGUAUGGAGGAGGACCUGGAGGUGGCAAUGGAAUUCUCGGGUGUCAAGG: -0.861
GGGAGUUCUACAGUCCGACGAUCCUCAAGUCCUGUGCUACACAUCGUAUGUACCGAAUCGGAAGGGGAAGGAAGGGGAAAGUAUUAUGUUACGCCGUUCGGAUCUGCACUUCCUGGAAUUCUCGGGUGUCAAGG: 0.356
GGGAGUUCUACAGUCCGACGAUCUAACUUUAGAGGAGGAUCUGAUGGAUAUGGCAGUGGAAGUGGAUUUGGGGAUGGCUAUAAUGGGUAUGGAGGAGGACCUGGAGGUGGCAAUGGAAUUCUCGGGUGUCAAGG: -1.16
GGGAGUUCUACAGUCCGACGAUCUGUCAGUAUCAUACAUAACAGAGGAAUGCCUGAAGAAGCUGGACACAAAGCAGCAGACCAACACCCUGCUCAACCUGGUGUGGAGGGACUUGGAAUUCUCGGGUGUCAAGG: -0.557
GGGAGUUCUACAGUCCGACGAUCUGGGAGGUGGAUUUUGUUUAUUUUUUUAGCUCACUUCCAGGGGUGGGAAUUUUUUUUUAAUAUGUGUCAUGAAUAAAGUUGUUUUUGAAAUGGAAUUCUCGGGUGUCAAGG: 3.34
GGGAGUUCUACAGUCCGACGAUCUGCCGAUUCGGAAGUCCUUGAGGAGCGUCAGAAGCGGCUUCCCUACGUCCCAGAGCCCUAUUACCCGGAAUCUGGAUGGGACCGCCUCCGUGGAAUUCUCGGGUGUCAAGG: -0.749
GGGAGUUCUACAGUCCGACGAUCCUGUGCUACACAUCGUAUGUACCGAAUCGGGGAAAAAAAGGGAAAAAAAGGGAAAAAAAGGAAAGUAUUAUGUUACGCCGUUCGGAUCUGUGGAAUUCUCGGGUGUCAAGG: -1.7
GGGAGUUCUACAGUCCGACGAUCGUCCUGUGCUACACAUCGUAUGUACCGAAUCGGGGAAAAAGGGAAAAAGGGAAAAAGGGAAAGUAUUAUGUUACGCCGUUCGGAUCUGCAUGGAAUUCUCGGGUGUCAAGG: -0.554
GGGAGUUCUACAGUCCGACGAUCUCAAGUCCUGUGCUACACAUCGUAUGUACCGAAUCGGGGAAGGGGAAGGGGAAGGAAAGUAUUAUGUUACGCCGUUCGGAUCUGCACUUCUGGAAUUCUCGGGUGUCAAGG: -0.486
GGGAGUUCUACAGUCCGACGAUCUCCUCAAGUCCUGUGCUACACAUCGUAUGUACCGAAUCGGUUUGGAGGUGGAAAGUAUUAUGUUACGCCGUUCGGAUCUGCACUUCCAGCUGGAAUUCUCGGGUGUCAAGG: -1.13

For quick reference, copied from above (set 3):
V8E: 0.631
F9N: 0.39
V8D: 0.0569
D10A: 0.104
T1K: 0.577
L13D: 0.0664
N11G: 0.195
V8I: 0.0176
Q12W: 0.719
L2E: -0.175
